Assay results from different studies.
A part holds a random share of what one study measured. Changes are numbered by the printed parent chain.

Block 1 — technique: RNA Bind-n-Seq; molecule type: RNA; matrix: in vitro; concentration: 200 nM; notes: whole 134-nt RNA, ends assumed; together with: 150 mM LiCl; baseline: input library; direction: higher = stronger binding; each molecule: 7-deaza-guanosine replaces G
Target: Ras GTPase-activating protein-binding protein 1, full length (G3BP1, Homo sapiens, UniProt Q13283)
UniProt Q13283, sequence (whole entry, looked up): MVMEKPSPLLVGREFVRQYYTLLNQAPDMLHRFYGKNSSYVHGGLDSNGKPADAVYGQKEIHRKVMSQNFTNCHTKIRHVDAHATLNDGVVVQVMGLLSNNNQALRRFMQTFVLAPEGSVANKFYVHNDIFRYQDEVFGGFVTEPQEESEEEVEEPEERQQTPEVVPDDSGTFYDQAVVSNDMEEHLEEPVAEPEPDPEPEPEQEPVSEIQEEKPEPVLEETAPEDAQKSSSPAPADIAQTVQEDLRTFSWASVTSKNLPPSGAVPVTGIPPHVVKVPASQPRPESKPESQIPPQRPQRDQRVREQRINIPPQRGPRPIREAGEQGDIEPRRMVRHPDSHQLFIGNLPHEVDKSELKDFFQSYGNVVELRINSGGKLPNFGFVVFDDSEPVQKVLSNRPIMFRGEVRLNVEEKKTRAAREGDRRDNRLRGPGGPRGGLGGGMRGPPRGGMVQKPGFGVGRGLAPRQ
The log2 enrichment of `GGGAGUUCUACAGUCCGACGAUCAAGUCCUGUGCUACACAUCGUAUGUACCGAAUCGGGGAAAGGGAAAGGGGAAAGGGGAAAGUAUUAUGUUACGCCGUUCGGAUCUGCACUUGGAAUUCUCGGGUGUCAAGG` is reported as 0.696.
With `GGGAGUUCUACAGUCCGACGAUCUCCUGUGCUACACAUCGUAUGUACCGAAUCAAAUUUUUUUAAAUUUUUUUAAAUUUAAAAAAGUAUUAUGUUACGCCGUUCGGAUCUGCAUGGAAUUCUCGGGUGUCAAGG` the log2 enrichment was -2.25.
For `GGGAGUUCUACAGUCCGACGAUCUGGCCCUGGUGGCAUGCGGGGAGGAAGAGGUGGCCUCAUGGAUCGUGGUGGUCCCGGUGGAAUGUUCAGGGGUGGCCGUGGUGGAGACAGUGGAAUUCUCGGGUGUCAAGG`, the log2 enrichment was 0.0686.
With `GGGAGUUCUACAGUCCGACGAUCUCCUCAAGUCCUGUGCUACACAUCGUAUGUACCGAAUCGGUUGGUUGGUUGGAAAGUAUUAUGUUACGCCGUUCGGAUCUGCACUUCCAGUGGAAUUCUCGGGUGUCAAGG` the log2 enrichment was 1.15.
`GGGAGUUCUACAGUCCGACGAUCUCCUGUGCUACACAUCGUAUGUACCGAAUCGGGUUUUUUUGGGAAAAAAAGGGUUUGGGAAAGUAUUAUGUUACGCCGUUCGGAUCUGCAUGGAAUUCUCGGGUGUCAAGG` has a log2 enrichment of -2.17.
For `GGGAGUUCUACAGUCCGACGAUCCUCAAGUCCUGUGCUACACAUCGUAUGUACCGAAUCGGGUGGGGUGGGUGGGGAAAGUAUUAUGUUACGCCGUUCGGAUCUGCACUUCCAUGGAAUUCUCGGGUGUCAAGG`, the log2 enrichment was 0.286.
The log2 enrichment of `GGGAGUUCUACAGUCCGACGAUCAAGUCCUGUGCUACACAUCGUAUGUACCGAAUCGGGAGGGUUUUUGGGAAAAAGGGAAAGUAUUAUGUUACGCCGUUCGGAUCUGCACUUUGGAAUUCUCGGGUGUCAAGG` is reported as 0.267.
`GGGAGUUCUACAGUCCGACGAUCUGUGCUACACAUCGUAUGUACCGAAUCGGGGAAAAAAAGGGGUUUUUUUGGGGUUUUUGGGGAAAGUAUUAUGUUACGCCGUUCGGAUCUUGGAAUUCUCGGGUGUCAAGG` gave a log2 enrichment of -1.88.

Block 2 — technique: protein-binding microarray; molecule type: double-stranded DNA, one strand shown; matrix: in vitro; concentration: 2540 nM top; notes: 60-bp whole probe; together with: salmon DNA 0.4 mg/ml; baseline: random background probes; direction: higher = stronger binding; constant ends, left off below: GCCTAGCAC … GTCTTGATTCGCTTGACGCTGCTG
Target: Interferon regulatory factor 3, full length, phosphomimetic (IRF3, Homo sapiens, UniProt Q14653, residues 1-427, S386D/S396D/S398D/S402D/T404D/S405D)
Construct (chain): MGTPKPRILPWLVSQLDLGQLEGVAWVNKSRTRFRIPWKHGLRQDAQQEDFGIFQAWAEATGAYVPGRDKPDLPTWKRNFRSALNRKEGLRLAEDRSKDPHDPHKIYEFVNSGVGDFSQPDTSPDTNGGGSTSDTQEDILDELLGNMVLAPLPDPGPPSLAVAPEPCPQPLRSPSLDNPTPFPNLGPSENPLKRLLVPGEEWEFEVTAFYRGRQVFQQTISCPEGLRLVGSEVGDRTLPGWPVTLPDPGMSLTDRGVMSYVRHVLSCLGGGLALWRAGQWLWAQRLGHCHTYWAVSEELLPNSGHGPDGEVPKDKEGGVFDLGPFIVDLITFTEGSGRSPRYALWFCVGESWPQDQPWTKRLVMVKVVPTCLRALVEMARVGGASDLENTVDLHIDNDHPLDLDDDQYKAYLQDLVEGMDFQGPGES
For `TCAAGTGTGTGTCTGATACTGTGCTAG`, “fitted relative affinity” read -0.428 z-score.
For `AACGGTATCGGGACTGGGGACGTGCTA`, “fitted relative affinity” read 1.59 z-score.
`GACGGTTTCGACACTGAGGACGTGCTA` — result for “fitted relative affinity”: 3.3 z-score.
For `TCATCTCTGGTTCTTGCACTGTGCTAG`, “fitted relative affinity” read 0.627 z-score.
`TCATAGGTTTCACTTTCCACTGTGCTA` — result for “fitted relative affinity”: 5.94 z-score.
Under “fitted relative affinity”, `GACGGTCTCGGTATCAGGACGTGCTAG` is recorded as 1.72 z-score.
For `TTAGGTATCTGTTTCGGTTAGTGCTAG`, “fitted relative affinity” read 5.91 z-score.
`TTAGAACTGGGGACGGGATTAGTGCTA`: “fitted relative affinity” -0.656 z-score.

Block 3 — target: CEP164, C-terminal peptide (human); technique: DHFR complementation, deep sequencing; matrix: yeast; baseline: wild type; direction: higher = weaker binding
Notes: single substitutions, model-inferred values
Starting sequence: PDZK1, PDZ domain 2 (human); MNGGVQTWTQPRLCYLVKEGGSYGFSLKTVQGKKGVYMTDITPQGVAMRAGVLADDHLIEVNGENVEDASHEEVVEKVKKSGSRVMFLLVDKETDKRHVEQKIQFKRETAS; partner HNRVKVYRF
`V75C` — result for “binding free energy change”: 0.484 kcal/mol.
Under “binding free energy change”, `A50L` is recorded as 0.711 kcal/mol.
`T9E`: “binding free energy change” 0.0618 kcal/mol.
Under “binding free energy change”, `D55Q` is recorded as 0.582 kcal/mol.
For `N2G`, “binding free energy change” read -0.195 kcal/mol.
`V90N` — result for “binding free energy change”: -0.0669 kcal/mol.
Under “binding free energy change”, `E67T` is recorded as -0.0856 kcal/mol.
`V36K`: “binding free energy change” 1.32 kcal/mol.

Single results of other studies
Starting sequence: PafA, mature enzyme, eGFP fusion (Elizabethkingia meningoseptica, UniProt Q9KJX5); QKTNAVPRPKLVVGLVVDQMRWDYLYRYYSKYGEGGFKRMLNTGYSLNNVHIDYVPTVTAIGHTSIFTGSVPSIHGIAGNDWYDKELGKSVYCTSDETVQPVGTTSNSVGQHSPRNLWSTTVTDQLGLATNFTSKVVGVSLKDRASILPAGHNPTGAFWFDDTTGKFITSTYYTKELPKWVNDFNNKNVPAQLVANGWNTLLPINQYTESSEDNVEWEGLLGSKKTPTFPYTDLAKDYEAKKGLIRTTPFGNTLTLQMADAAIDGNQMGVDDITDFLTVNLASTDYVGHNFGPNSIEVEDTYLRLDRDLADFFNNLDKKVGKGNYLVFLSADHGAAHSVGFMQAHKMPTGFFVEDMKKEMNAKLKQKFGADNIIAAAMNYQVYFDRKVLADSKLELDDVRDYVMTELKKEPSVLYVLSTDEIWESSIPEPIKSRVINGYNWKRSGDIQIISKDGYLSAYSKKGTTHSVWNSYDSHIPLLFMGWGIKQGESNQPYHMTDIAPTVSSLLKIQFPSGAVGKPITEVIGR
`Q100V` — result for “phosphate dissociation constant”: 682 µM (inorganic phosphate, free oxyanion; microfluidic competitive inhibition; in vitro, cell-free expressed; not given, derived from inhibition constants, unchanged parent 615000 nM; lower = stronger binding).

Some of these lines once more (block 3):
`V75C` — result for “binding free energy change”: 0.484 kcal/mol.
Under “binding free energy change”, `A50L` is recorded as 0.711 kcal/mol.
